Published values from different studies.
Lines come from different studies, so protocols differ.

| Structure (SMILES) | test system | setting | Cmax |
| --- | --- | --- | --- |
| COc1cccc2c1C(=O)c1c(O)c3c(c(O)c1C2=O)C[C@@](O)(C(=O)CO)C[C@@H]3O[C@H]1C[C@H](N)[C@H](O)[C@H](C)O1 | mouse, E0771 tumour-bearing, heart | intravenous, 92 µmol/kg | 115 µM |
| Cc1ccc(Nc2nccc(N(C)c3ccc4c(C)n(C)nc4c3)n2)cc1S(N)(=O)=O | mouse non-tumour-bearing, plasma | oral, 150 mg/kg single, with: topotecan 1.0 mg/kg oral | 122000 ng/mL |
| CC(=O)Nc1cccc(-n2c(=O)n(C3CC3)c(=O)c3c(Nc4ccc(I)cc4F)n(C)c(=O)c(C)c32)c1 | athymic nude mouse, tumour-bearing, plasma | oral, 5 mg/kg, single dose, with: sapanisertib 2 mg/kg | 34.8 ng/mL |
| CCOc1ccc(NC(=S)N(CCO)Cc2cc3cc(C)cc(C)c3[nH]c2=O)cc1 | C57BL/6J mouse, plasma | oral, 3 mg/kg, with: ABT 50 mg/kg oral pretreatment 2 h before | 738 ng/mL |
| Cc1cnc(Nc2ccc(OCCOc3ccc(/N=N/c4ccc(C(=O)NCCC(=O)O)cc4)cc3C(=O)O)cc2)nc1Nc1cccc(S(=O)(=O)NC(C)(C)C)c1 | mouse C57BL/6 female, colon content | oral, 10 mg/kg | > 50000 ng/g |
| CC(=O)N[C@@H](Cc1ccccc1)C(=O)N[C@H]1CCCNC(=O)[C@H](CCCNC(=N)N)NC(=O)[C@H](Cc2c[nH]c3ccccc23)NC(=O)[C@@H](CC2CCCCC2)NC(=O)[C@@H]2CCCN2C1=O | C57BL/6J mouse, plasma | oral, 1 mg/kg, single dose | 250 ng/mL |
| Cc1cc(Nc2ccc(C(F)(F)F)nc2)n2nc(C(C)(F)F)nc2n1 | mouse, plasma | oral, 4.5 to 41.5 mg/kg | 3110 to 33300 ng/mL |
| COc1ccc(/N=C(\N)CC(O)c2cc3c(F)cc(F)cc3c3cc(C(F)(F)F)ccc23)cc1.Cl (stereo not shown) | mouse, dried blood spot | oral, 10 mg/kg single dose | 29.1 ng/mL |
| Cc1cc(-c2cc(OC(=O)c3ccccc3)ccc2Cl)cc2nnc(Nc3ccc(OCCN4CCCC4)cc3)nc12 | C57BL/6 mouse, plasma | topical, 1% | not detected |
| COc1cccc(CN)c1O | C57BL/6N mouse, male, plasma | intraperitoneal, 200 mg/kg | 343000 ng/mL |

Repeated from above:
| Structure (SMILES) | test system | setting | Cmax |
| --- | --- | --- | --- |
| COc1cccc(CN)c1O | C57BL/6N mouse, male, plasma | intraperitoneal, 200 mg/kg | 343000 ng/mL |
| COc1cccc2c1C(=O)c1c(O)c3c(c(O)c1C2=O)C[C@@](O)(C(=O)CO)C[C@@H]3O[C@H]1C[C@H](N)[C@H](O)[C@H](C)O1 | mouse, E0771 tumour-bearing, heart | intravenous, 92 µmol/kg | 115 µM |
